# Published values gathered from unrelated publications.
# UniProt Q02156, sequence (whole entry, looked up): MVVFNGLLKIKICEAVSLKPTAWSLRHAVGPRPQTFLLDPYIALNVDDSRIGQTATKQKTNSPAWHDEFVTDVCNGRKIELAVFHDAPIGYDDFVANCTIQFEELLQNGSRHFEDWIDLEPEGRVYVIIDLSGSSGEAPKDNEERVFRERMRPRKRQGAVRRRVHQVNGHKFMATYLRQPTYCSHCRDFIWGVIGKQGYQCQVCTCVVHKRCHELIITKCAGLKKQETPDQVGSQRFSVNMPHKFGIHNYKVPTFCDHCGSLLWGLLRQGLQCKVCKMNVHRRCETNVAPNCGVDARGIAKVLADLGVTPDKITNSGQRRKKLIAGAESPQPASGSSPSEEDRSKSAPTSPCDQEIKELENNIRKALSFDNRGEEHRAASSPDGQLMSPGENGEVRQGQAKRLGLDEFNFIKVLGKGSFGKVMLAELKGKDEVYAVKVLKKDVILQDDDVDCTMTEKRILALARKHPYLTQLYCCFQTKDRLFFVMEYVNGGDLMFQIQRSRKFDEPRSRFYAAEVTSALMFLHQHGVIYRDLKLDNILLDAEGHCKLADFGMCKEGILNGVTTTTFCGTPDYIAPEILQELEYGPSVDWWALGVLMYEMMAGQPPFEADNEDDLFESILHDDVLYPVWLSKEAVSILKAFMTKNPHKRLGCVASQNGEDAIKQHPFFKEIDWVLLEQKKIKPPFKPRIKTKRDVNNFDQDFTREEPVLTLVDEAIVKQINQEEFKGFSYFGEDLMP
# UniProt Q8NEB9, sequence (whole entry, looked up): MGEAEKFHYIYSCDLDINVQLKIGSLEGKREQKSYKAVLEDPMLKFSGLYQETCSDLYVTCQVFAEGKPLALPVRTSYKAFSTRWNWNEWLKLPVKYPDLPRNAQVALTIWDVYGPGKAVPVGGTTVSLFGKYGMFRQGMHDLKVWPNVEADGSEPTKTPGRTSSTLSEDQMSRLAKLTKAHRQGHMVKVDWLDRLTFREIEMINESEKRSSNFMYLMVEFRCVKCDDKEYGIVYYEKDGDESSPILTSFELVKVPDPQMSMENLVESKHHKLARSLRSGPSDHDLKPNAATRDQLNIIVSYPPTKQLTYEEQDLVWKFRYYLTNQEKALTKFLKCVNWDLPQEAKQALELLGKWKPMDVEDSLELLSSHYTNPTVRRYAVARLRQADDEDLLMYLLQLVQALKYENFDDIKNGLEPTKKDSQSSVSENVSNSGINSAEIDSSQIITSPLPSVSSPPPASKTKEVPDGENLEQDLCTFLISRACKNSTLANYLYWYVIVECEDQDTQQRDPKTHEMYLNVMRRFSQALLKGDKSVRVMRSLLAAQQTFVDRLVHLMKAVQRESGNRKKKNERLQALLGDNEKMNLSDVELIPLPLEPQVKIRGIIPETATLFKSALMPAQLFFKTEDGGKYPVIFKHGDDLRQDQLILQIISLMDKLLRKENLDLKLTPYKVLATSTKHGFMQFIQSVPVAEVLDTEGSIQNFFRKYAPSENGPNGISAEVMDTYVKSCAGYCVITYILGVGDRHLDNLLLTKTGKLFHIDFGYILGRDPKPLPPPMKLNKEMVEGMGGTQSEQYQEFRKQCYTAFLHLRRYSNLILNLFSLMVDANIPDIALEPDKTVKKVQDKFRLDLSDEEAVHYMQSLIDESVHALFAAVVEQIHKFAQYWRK
# UniProt Q13976, sequence (whole entry, looked up): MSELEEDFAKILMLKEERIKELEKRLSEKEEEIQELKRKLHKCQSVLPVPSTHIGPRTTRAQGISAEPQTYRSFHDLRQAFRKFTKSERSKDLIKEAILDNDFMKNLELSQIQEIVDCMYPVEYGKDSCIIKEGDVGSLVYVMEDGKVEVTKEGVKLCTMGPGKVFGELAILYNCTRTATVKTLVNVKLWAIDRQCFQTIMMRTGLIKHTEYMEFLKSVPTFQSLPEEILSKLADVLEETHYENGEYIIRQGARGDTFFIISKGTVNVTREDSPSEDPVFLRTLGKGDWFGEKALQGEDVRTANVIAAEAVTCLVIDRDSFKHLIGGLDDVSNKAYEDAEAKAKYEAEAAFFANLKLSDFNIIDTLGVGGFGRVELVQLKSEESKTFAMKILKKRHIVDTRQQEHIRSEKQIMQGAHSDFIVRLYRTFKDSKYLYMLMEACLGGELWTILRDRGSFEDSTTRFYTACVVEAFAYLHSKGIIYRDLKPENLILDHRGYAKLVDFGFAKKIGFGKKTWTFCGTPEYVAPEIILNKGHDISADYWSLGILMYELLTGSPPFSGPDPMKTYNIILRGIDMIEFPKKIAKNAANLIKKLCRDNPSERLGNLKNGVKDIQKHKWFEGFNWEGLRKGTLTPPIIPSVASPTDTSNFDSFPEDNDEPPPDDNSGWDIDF
# UniProt Q9Y2H9, sequence (whole entry, looked up): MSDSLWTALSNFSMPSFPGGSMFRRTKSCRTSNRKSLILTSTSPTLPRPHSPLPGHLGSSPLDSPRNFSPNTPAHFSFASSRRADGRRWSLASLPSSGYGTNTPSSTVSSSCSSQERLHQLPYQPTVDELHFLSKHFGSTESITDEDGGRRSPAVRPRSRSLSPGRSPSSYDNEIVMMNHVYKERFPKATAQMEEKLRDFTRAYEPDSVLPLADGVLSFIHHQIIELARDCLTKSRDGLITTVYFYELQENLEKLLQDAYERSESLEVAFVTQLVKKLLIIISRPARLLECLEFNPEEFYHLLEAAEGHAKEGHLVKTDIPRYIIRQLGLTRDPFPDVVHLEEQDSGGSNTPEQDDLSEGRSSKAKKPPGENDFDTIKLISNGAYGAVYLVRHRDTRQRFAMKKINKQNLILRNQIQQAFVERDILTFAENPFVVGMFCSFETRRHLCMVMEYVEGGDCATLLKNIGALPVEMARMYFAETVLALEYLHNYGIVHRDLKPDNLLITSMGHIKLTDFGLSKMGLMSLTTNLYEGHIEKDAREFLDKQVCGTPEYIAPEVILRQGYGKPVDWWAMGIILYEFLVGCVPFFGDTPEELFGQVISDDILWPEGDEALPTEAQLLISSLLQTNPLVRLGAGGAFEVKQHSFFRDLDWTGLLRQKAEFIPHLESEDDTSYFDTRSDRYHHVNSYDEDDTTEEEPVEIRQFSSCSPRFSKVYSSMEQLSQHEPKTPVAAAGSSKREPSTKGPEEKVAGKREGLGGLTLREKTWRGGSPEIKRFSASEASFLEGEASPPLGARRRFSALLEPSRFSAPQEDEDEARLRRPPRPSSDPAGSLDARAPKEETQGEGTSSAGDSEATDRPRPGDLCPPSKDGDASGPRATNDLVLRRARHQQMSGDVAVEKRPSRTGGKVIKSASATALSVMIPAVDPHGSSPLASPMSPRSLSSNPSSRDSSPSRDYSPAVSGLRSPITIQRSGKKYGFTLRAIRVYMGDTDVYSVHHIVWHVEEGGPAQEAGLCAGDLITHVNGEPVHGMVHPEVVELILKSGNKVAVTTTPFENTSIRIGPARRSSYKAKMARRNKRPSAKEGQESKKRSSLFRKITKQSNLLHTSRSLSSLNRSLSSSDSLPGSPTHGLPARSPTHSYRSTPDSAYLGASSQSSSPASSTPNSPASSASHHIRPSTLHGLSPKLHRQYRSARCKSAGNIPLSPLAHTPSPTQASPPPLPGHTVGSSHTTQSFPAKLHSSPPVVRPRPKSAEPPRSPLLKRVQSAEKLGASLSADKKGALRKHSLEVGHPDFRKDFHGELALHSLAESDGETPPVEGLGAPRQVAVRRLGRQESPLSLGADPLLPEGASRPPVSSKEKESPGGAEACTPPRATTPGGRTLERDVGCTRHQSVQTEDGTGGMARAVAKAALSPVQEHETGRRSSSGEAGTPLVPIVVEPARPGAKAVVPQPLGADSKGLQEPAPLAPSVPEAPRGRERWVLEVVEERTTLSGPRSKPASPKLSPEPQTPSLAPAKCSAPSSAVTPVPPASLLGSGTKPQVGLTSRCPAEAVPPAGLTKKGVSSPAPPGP
# UniProt Q8TF76, sequence (whole entry, looked up): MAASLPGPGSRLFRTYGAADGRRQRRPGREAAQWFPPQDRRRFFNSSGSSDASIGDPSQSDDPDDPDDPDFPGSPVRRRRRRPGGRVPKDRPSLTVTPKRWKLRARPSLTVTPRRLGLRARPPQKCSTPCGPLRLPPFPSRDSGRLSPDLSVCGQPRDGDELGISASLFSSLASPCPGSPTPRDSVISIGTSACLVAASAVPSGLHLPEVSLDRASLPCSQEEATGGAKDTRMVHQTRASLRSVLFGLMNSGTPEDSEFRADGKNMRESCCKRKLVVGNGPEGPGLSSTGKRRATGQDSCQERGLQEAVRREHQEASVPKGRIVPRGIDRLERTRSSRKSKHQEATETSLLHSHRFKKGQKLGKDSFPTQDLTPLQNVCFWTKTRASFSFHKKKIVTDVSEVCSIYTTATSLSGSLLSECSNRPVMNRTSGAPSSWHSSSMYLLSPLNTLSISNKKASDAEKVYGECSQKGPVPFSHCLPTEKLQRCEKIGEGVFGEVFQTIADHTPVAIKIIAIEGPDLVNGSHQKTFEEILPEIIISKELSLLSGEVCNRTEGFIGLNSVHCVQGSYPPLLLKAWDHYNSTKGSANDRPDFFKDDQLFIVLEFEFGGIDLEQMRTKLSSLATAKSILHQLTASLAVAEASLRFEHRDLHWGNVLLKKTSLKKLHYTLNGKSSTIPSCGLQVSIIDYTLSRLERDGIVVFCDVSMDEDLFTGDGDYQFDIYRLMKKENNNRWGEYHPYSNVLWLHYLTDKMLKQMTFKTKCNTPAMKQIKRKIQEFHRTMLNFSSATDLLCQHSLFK
# UniProt O00506, sequence (whole entry, looked up): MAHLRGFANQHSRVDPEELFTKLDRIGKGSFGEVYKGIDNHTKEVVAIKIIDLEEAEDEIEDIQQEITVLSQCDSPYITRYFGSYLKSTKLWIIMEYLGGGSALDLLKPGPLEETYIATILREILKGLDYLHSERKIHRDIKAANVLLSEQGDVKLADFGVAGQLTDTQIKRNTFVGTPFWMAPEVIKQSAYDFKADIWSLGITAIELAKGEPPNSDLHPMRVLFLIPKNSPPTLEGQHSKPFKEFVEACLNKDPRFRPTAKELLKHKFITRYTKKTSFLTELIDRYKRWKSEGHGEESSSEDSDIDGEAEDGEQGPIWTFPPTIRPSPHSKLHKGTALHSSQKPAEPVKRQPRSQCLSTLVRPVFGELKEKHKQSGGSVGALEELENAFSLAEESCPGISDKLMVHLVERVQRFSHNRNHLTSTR
Compound,target or system,test,setting,quantity,value
CNc1ncc2c(/C=C/C(=O)N3CCC(OC)CC3)nn(Cc3cccc(C(F)(F)F)c3)c2n1,"PRKG1 (Homo sapiens, UniProt Q13976)","enzyme activity, inhibitor, radiometric",1 µM,remaining activity,96%
FC(F)(F)Oc1cccc(-c2cnc3ccc(-c4ccncc4)nn23)c1,"STK25 (Homo sapiens, UniProt O00506)","binding, competition with immobilised ligand",5 µM,remaining binding,77%
C1=C/COCc2cc(ccc2OCCN2CCCC2)Nc2nccc(n2)-c2cccc(c2)COC/1,"MAST1 (Homo sapiens, UniProt Q9Y2H9)",binding,0.1 µM,remaining binding,77%
CCCCC(=O)Nc1ccc(-c2ccc3ncn(CCC)c(=O)c3c2)cn1,"STK38L (Homo sapiens, UniProt Q9Y2H1)","binding, competition with immobilised ligand",0.5 µM,remaining binding,100%
CC(=NNC(=O)c1cccnc1)c1ccc(Nc2nnc(-c3ccc(Cl)cc3)c3ccccc23)cc1,MCF7,"cell growth or viability, MTT",2.5 µM,cell death,85.2%
C=CC(=O)N1CCC(COCC(=O)N2CCN(c3nc(-c4cnc(N)nc4C(F)F)nc(N4CCOC[C@@H]4C)n3)CC2)CC1,"MAPK15 (Homo sapiens, UniProt Q8TD08)","binding, competition with immobilised ligand",1 µM,remaining binding,100%
COc1ccc2oc(-c3ccc4nc(N)oc4c3)c/c(=N\c3ccccc3NC(=O)CCN)c2c1,"HASPIN (Homo sapiens, UniProt Q8TF76)",binding,1 µM,remaining binding,102%
COc1cc(-c2cncc3c2CN(C)Cc2cc(N4CCNCC4)ccc2-3)cc(OC)c1OC,"PRKCE (Homo sapiens, UniProt Q02156)","enzyme activity, inhibitor",1 µM,remaining activity,103%
Cc1cc([C@@H](C)Nc2ccccc2C(=O)O)c2nc(N3CCC(F)(F)CC3)c(C#N)c(=O)n2c1,"KDR (Homo sapiens, UniProt P35968)","binding, competition with immobilised ligand",10 µM,remaining binding,83%
CNS(=O)(=O)c1ccc(Nc2ncc(C(F)(F)F)c(N3CCC[C@](C)(O)C3)n2)c(C)c1,"CDK8 (Homo sapiens, UniProt P49336)","binding, competition with immobilised ligand",1 µM,remaining binding,100%
F[C@@H]1CCN(c2nccc(-c3cnn4ncccc34)n2)C1,"PIK3C3 (Homo sapiens, UniProt Q8NEB9)",binding,1 µM,remaining binding,100%
Cc1cc(NS(=O)(=O)c2ccc(N=NN(C)O)cc2)no1,,ABTS scavenging,120 µg/mL,inhibition,37.5%
